Published values of several laboratories.
A part holds a random share of what one study measured.

Set 1
Target: RING finger protein unkempt homolog, zinc fingers 1-6, GST-SBP tag (UNK, Homo sapiens, UniProt Q9C0B0, residues 30-357)
UniProt Q9C0B0, sequence (30-357, looked up): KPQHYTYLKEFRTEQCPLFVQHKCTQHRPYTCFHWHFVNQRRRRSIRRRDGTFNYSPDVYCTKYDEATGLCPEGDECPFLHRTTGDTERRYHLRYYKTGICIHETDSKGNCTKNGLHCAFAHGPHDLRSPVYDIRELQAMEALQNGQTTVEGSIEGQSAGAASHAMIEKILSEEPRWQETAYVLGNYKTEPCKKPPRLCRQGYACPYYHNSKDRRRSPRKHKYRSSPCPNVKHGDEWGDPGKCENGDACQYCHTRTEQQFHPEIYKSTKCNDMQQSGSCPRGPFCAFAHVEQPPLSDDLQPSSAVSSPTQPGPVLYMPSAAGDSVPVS
Method: RNA Bind-n-Seq
Form: RNA
Matrix: in vitro
Concentration: not given
Setting: RNA with constant flanks, human and mouse sites, ends assumed
Reference: input RNA pool
Reading: higher = stronger binding
All sequences stand within: GGGAGUUCUACAGUCCGACGAUC … CAACAGAGGAUUGAGCAUCA
| Strand | bound/input enrichment [ratio] |
| --- | --- |
| ACAAAUUCUAAGUCUGAUGAAGACAGGCAGCUAGCUAACUCAUUAGAGAGUGUAGGGCCAAUAGAUUACGUUCUUCCUAGUUGUGGUAUUAUUGCCUCAGCGCCUCGAUUGGGCAGUCGG | 1.03 |
| AUUAAUAGAUAUAGCCGUUUAUCAAAAAAAAGAGAAAAUGACAAGGUGAAGUAUGAAGUAACAGAAGAUGUGUACACAUCCAGAAAGAAACAACACCAGACCAUGAUGCAUUAUUUUUGU | 1.89 |
| AAAGUCGGGACAGAGAACAAGAUAGAAAGUCCAAGGAGAAAGAAAAGAAGGGAUCUGAUGAUAAAAAGAGUAGUGUGAAGUCCAGUAGUCGAGAAAAGCAGAGUGAAGACACAAACCCUG | 1.13 |
| CUCUGGGCUGUUUCAUAAGCAAGUGGUUUUAAUUAACUCACAAAGCCUUUCUAGACAUUAAUAUUUAUUUUAUUAUUAUUUUUUGUUUUGUUUGGUAUACAUACUACCCAGCAUCUCUUU | 11.7 |
| GCAGAGAUUCAUCACAGUUGGACUUCAGGGGUAGGGACAUACAUUCUGGGGAUUUUCGGGAUAGAGAAGGACCACCUAUGGACUAUAGGGGUGGAGAUGGUACUUCUAUGGAUUAUAGAG | 1.42 |
| CCUGGCAGAAGGACUGGGGUAGACAUCAAUCGUGUGUCCUGAUUUGAAGGGGGAGGGGGGCUCCUUGGGAAGAUGUCUCAGCCUGAUUUUUUGUCUCUACUCAUUUUAUACCACUGUUUG | 0.258 |
| UCUCCUGAUCUAAUGAGUUUUAUGAUGGAAUUGAAGAUGAUUUUGGAAGUUGCUUUAAAGAAUAAGCAAGAGUUGUGUGUACAACCACCUUCUUGCAGUUUCUGCAAAGACCUUCUUACU | 0.148 |
| AAGGUGGAAGAACUCCUUUAAUGAAAGCUGCAAGAGCUGGUCAUGUUUGUACUGUUCAGUUCUUAAUUAGUAAAGGAGCGAAUGUGAAUAGAACCACAGCUAAUAAUGACCAUACUGUAC | 0.527 |
| ACAGAGGCUCGGGGCCGGGAUGGGGUAUGGAAACGGUUGGAGGAAUGGAUGUCUUGGGACAAUUUUGCAGAUUAUGUGUUGCUUAAAAUGUAAUGUAACUGACACAGAGCCCAGAAAGCU | 0.396 |
| AAACCAAGGAAACGGAAACGGCAGAGGCUUGUCACAGCCAGAGUGCACUAUAAAAAAGUGAAGAAGGAGGACUUAACAAAAGACACACCCAGCUCGGAGGGAGAACUGCUGAUUCACAGG | 0.22 |
| AGAACAAAUAAAGGGCUCCAGCUACGGCAUGGCAAUGACCAGCGAGUGUUCCGCCUAGAGUUUGUGUCCAACCAAGAAUUCACUGAAAGUGAAUUCAUGAAGUGGAAAGAAGCGAUGUUU | 0.211 |

Set 2
Target: RNA binding protein fox-1 homolog 2, RRM domain, GST-SBP tag (RBFOX2, Homo sapiens, UniProt O43251-10, residues 100-194)
Method: RNA Bind-n-Seq
Form: RNA
Matrix: in vitro
Concentration: 365 nM
Setting: natural RNA segment, single round, ends assumed
Reference: no-protein control
Reading: higher = stronger binding
All sequences stand within: GGGAGUUCUACAGUCCGACGAUC … UGGAAUUCUCGGGUGCCAA
Target sequence (chain): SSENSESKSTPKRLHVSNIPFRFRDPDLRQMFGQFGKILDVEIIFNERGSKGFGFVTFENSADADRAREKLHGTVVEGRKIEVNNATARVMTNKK
| Strand | RBNS enrichment (R) |
| --- | --- |
| CAAGCACCCUAUCUUGUGUCCCUCACAAACAAGCUCUUGUCACUUCUUACCGAGUCCAUAGCUUCAUGCCCCUCUCGUGACUUACUGAGGGUCCAGAUGGCUGUCAGGAA | 0.346 |
| AGCUGGGAGGGCUCUUCUGGGCGUCCGGGCAGCUGCAGCUGAGAGGACUUUCACACCAUAAGGAGAUUUCUGUUUUUCUUUUUGGCUGUUAAUGCUUGUCUAUAACAUUG | 0.502 |
| GAGAGCAACGCUGAGCUGGGUCCCUAGCCUGGGCAGUGAUUGCCACUGCCACGUGGACCCCUAUGCGUGCGCAGAGGGCAGCGGGUAUGUGGCUUUGCAGGCCCGGCCCA | 0.631 |
| ACUUGGGCCUGAUGCUUCUCUAACUGGCAGAAGCAGGCUCUACCUGGACCUCCAGCUGGGAGGUCAUCCUCCCUCUAGCUUGUAUGUCCUGUACUUUGCAACCCCUAAGC | 0.91 |
| UUUUGUGCUAUUGUUUUAAAAAAUAAUAAUUAAAAAACAGUUGGCGUUAAUAAAAAUGUCAAUGUGAUUUGUUGGCCUGGUUCUUUCAGCUUUCUUGAAAGGAAACUAAA | 0.317 |
| GAGUCCUGCCUACUUUGACUUUUACGUUCCCAUUCCUGUGUUACCACCUUCCUCCCGAUUUGUUCACCUAUUUUGUGCUUUAAAUCUCAAUAAAAUACUUACUGAGGGAA | 0.464 |
| GCUGCCCAGUCCAUGGGGACAGAACCGUCACUCAGAUCCACAUUCAAGUGUGCCCACCCUGCAGUCUUCAUCCUCACUCAGCUGCUGCCUCUGGAGGUGCCUUUGGCCAC | 0.383 |
| UGCCUGCGCCCGCUCACCAAGGGGUCCUUCCAGGAGCGCGCCGGCAAGCCCUACUGCCAGCCCUGCUUCCUGAAGCUCUUCGGCUGACAGCCCGCUCGGCUCGCCCUCUC | 0.224 |
| UCUCAGGGGGCUGUGUCUGAGUGACGGGUGUAUGUCUGUCUCAGAGAAUGUGUGUCUGUGGCCCCAAGUAGGUGAUAGGGAGAGACGGGGGCACCACAACCAACUCAGUG | 2.82 |
| AGCCAGGCCUAGCUUUGAACUGAGUUUCAAGGGCUGCCAAAGAGGGGCAGUGGGUUGGGGUUGUUUUUACUACAAAAUAAGUUACUUAGUUUUAUAAAGACAAACCGAUU | 0.395 |
| CUGGGCAGUUAGGUACCCUGGAAGGAGGGGAGGGAACCUCGAUGAAGCCAGUACAACAACAGAAGAGCCCCCCCAGCUGCCAGGGCACCCCAGACCCCCACUCUUCACUG | 0.303 |
| CACAGCAUUGAGGCCAGCCUGACUGAAGGAUGAUGUGAGGCUGUUUGUCACUUCUGUUCUUUUCCCCGUGGUUGAGACUGCCCACAGGAAAAGGGCUGGCUGCUCUGACA | 2.86 |

Set 3
Target: Histone acetyltransferase KAT6A, both winged helices, GST fusion (KAT6A, Homo sapiens, UniProt Q92794, residues 1-181)
Method: protein binding microarray
Form: double-stranded DNA, one strand shown
Matrix: in vitro
Concentration: not given
Setting: 8-mer, flanks averaged, mean of 2 arrays, mostly near background
Reference: not given
Reading: higher = stronger binding
Construct (chain): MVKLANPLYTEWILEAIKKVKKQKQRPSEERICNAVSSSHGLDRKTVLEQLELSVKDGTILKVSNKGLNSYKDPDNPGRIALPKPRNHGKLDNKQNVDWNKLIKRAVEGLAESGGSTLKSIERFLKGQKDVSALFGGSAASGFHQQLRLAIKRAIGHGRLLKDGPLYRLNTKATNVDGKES
| Strand | E-score |
| --- | --- |
| GGAATGTA | -0.0134 |
| CATTCACA | -0.28 |
| AGTATACG | 0.0917 |
| ATTAACCA | -0.0962 |
| ACCAGGGG | -0.266 |
| ACAAGAGA | -0.134 |
| GCTGCTAA | -0.0949 |
| AACGACGA | -0.0999 |
| CAGTACGG | 0.244 |
| ACACCCCG | 0.133 |
| GAAAGCCC | -0.06 |
| AGTCAATA | -0.0137 |
| CTTAAGGC | -0.0301 |
| CTCTTCGA | 0.0365 |
| CGGATAGA | 0.213 |
| GCGCACAA | 0.287 |
| CAAGCCTG | -0.135 |
| AACCTAAG | -0.0981 |
| GAACCGAA | 0.0624 |
| CCAGAATA | -0.192 |
| GAGGTCGA | -0.216 |
| AGGCTCCC | -0.238 |
| AGCGAAGG | 0.0196 |
| CTAGCGAC | -0.0389 |
| CAGACTAG | -0.0217 |

Set 4
Target: Fragile X messenger ribonucleoprotein 1, C-terminal low-complexity region (Fmr1, Mus musculus, UniProt P35922)
Method: RNA Bind-n-Seq
Form: RNA
Matrix: in vitro
Concentration: 200 nM
Setting: whole 134-nt RNA, ends assumed
Added: 150 mM KCl
Reference: input library
Reading: higher = stronger binding
All sequences stand within: GGGAGUUCUACAGUCCGACGAUC … UGGAAUUCUCGGGUGUCAAGG
| Strand | log2 enrichment |
| --- | --- |
| UGGCCCUUGUGGCAUGCGGGGAGGAAGAGGUGGCCUCAUGGAUCGUGGUGGUCCCGGUGGAAUGUUCAGAGGUGGCCGUGGUGGAGACAG | 0.0404 |
| ACCAUGCAGGUGGGCAUCUUUGGGAAGUGGGGCAAGGGGGGAAUAGGGAGGGGGGUAACACUUUGGGAACAGGUGGUCCCAGGUCGUUUC | 0.757 |
| UCAAGUCCUGUGCUACACAUCGUAUGUACCGAAUCGGAAAGGUUUGGUUUUUGGAAAGUAUUAUGUUACGCCGUUCGGAUCUGCACUUCC | -0.664 |
| GCAGGAAGUAAAAACAAAUGGAAAUGCUUCGGAUAGUGGCAUGGGUGGGGGUUGCUAAGGAAAGGGUGGGAUGGGAGUGGGUAAAGAGUU | 0.21 |
| CUGUGCUACACAUCGUAUGUACCGAAUCGGGGCCCCCCCGGCCCCCCCGGGGCCCCCCCGGGAAAGUAUUAUGUUACGCCGUUCGGAUCU | -1.04 |
| CUCAAGUCCUGUGCUACACAUCGUAUGUACCGAAUCGGGGUUGGGUUGGUUGGAAAGUAUUAUGUUACGCCGUUCGGAUCUGCACUUCCA | 0.32 |
| UAACUUUAGAGGAGGAUCUGAUGGAUAUGGCAGUGGACGUGGAUUUGGGGAUGGCUAUAAUGGGUAUGGAGGAGGACCUGGAGGUGCCAA | 0.181 |
| UUCCUCAAGUCCUGUGCUACACAUCGUAUGUACCGAAUCGGAGGAGGGAGGAAAGUAUUAUGUUACGCCGUUCGGAUCUGCACUUCCAGC | -0.536 |
| UCAAGUCCUGUGCUACACAUCGUAUGUACCGAAUCGGAAAGGGAAAGGAAAGGGAAAGUAUUAUGUUACGCCGUUCGGAUCUGCACUUCC | -0.428 |
| UGCUGGUGAGCUGCUGCCUGGCAGGCCACGUCUGCGUGUGGGACGCGCAGACCGGGGAUUGCCUAACGCGCAUUCCGCGCCCAGGGUAGG | -1.22 |
| GUCCUGUGCUACACAUCGUAUGUACCGAAUCGGGGUUUGGGGAAAAAAAGGGGUGGGGAAAGUAUUAUGUUACGCCGUUCGGAUCUGCAC | 0.594 |
| CAAGUCCUGUGCUACACAUCGUAUGUACCGAAUCGGGUUUGGGGUUUGGGUUUGGAAAGUAUUAUGUUACGCCGUUCGGAUCUGCACUUC | -0.0142 |
| CUGUGCUACACAUCGUAUGUACCGAAUCGGUUUUUUUGGUUUUUUUGGGGUUUUUUUGGGGAAAGUAUUAUGUUACGCCGUUCGGAUCUG | -0.923 |
| CUCAAGUCCUGUGCUACACAUCGUAUGUACCGAAUCGGGGCCGGCCGGCCGGGGAAAGUAUUAUGUUACGCCGUUCGGAUCUGCACUUCC | 0.0977 |
